Measurements collected from several papers.
Each numbered part is a random draw from the data of one study; scales do not carry over between parts. Positions count from the first letter of the parent shown.
Chain of UniProt P50750 (whole entry, looked up): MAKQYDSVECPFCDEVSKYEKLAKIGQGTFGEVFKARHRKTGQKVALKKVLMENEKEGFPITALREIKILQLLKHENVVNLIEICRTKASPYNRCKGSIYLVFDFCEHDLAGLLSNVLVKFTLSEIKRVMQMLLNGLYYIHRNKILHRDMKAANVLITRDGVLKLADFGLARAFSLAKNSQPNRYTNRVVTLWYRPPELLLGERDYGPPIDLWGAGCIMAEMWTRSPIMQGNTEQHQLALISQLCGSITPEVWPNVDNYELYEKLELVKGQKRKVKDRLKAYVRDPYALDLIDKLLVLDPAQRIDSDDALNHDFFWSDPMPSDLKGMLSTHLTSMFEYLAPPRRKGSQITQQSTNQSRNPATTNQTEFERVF

Series 1 — target: vanadate, free oxyanion; technique: microfluidic competitive inhibition; matrix: in vitro, cell-free expressed; tested at: not given; direction: lower = stronger binding
Notes: derived from inhibition constants, unchanged parent 676 nM
Starting sequence: PafA, mature enzyme, eGFP fusion (Elizabethkingia meningoseptica, UniProt Q9KJX5); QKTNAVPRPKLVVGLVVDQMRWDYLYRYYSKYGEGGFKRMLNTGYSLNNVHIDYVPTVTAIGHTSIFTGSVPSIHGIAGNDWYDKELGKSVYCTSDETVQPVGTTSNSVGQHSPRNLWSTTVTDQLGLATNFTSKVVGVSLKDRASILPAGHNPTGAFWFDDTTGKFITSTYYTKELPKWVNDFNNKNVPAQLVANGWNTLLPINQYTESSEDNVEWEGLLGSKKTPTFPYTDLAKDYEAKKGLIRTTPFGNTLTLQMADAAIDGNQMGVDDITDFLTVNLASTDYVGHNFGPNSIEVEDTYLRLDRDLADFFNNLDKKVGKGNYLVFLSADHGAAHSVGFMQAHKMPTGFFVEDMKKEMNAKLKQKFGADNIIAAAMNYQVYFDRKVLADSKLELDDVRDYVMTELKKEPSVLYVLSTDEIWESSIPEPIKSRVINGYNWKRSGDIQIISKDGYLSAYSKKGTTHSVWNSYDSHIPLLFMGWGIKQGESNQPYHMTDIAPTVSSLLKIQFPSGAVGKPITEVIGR
Variant | oxyanion analog dissociation constant [nM]
Q192G | 716
L221G | 816
T68V | 580
S460G | 710
L507V | 698
Q111G | 629
L41V | 760
P72V | 1360

Series 2 — effect on: binding; technique: phage display NGS; molecule type: peptide; relative to: input library
Target: UDP-N-acetylglucosamine--peptide N-acetylglucosaminyltransferase 110 kDa subunit (OGT, Homo sapiens, UniProt O15294)
Target sequence (O15294 1-1046): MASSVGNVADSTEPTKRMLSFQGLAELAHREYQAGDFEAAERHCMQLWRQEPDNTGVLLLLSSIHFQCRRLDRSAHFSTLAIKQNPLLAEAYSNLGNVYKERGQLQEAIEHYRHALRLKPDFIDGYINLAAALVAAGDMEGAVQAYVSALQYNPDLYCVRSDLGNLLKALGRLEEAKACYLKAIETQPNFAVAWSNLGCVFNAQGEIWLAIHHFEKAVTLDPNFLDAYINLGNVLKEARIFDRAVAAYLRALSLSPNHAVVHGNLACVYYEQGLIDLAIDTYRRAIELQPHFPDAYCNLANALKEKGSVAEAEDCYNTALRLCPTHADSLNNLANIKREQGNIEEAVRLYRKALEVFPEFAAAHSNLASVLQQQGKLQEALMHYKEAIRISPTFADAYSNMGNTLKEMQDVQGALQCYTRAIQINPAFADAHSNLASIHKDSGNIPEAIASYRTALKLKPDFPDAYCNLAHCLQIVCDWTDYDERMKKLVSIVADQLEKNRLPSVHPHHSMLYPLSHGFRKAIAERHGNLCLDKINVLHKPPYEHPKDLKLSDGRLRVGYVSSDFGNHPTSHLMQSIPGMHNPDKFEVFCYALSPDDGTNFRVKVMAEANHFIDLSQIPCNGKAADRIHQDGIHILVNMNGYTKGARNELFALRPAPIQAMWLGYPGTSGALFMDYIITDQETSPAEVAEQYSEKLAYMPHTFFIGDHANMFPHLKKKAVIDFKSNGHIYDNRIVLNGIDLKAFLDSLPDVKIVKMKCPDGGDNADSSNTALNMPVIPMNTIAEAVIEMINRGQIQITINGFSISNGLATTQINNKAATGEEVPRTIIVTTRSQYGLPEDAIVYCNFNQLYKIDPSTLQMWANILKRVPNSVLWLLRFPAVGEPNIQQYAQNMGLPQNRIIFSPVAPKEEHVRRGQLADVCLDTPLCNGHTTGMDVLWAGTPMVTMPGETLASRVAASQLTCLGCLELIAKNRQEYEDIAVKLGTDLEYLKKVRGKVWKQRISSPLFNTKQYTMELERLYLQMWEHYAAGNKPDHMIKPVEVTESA
Sequence | minimum log2 enrichment ratio
TNSANKPVHHHVVDT | 1.17
SQPQRSYTPFYQIQA | 3.47
DAPWHKTHHMLPYSH | 2.34
FMPMYEIKYAKREDN | 4.33
HVFHDQQSLLHMDKH | 3.28
NVAQTHMHHHLLHEV | 3.19
NEQQIFPPIYIIQHP | 1.73
QHSQHVHFTHRGEGH | 2.57

Series 3 — target: CCNB2, cyclin fold, Cln2 fusion (human); technique: yeast growth competition, sequencing; matrix: yeast; notes: strong parent motif; relative to: not given; direction: higher = stronger binding
Starting sequence: viral docking peptide; YKVKRRLVFGADD; partner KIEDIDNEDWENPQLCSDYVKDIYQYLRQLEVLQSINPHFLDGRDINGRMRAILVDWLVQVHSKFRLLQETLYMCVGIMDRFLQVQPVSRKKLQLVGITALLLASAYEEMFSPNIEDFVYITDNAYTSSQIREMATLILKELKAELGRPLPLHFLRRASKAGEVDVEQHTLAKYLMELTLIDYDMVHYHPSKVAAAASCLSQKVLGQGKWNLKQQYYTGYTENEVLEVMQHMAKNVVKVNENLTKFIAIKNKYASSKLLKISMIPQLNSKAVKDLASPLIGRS
Variant | normalised enrichment score
YRVKRRLVFGADD [K2R] | 2.03
YKVKRRLVSGADD [F9S] | 0.48
YKVKRRLVFGEDD [A11E] | 2.76
YKVKRRLYFGADD [V8Y] | 2.08
YKVKRNLVFGADD [R6N] | 0.562
YKVKSRLVFGADD [R5S] | 0.375
YHVKRRLVFGADD [K2H] | 1.95
YKVKRRLVFGAED [D12E] | 1.66

Further values, each from its own experiment
Structure (SMILES) | target | test | conditions | how to read | quantity | result
N/C(=N\[N+](=O)[O-])N/N=C\c1ccc(-c2cccc([N+](=O)[O-])c2)o1 | Cyclin-dependent kinase 9, with cyclin T1 (CDK9, Homo sapiens, UniProt P50750) | enzyme activity, inhibitor | 0.5 µM | relative to: control | remaining activity | 109%

A few entries again (series 1):
Variant | oxyanion analog dissociation constant [nM]
S460G | 710
T68V | 580
Q111G | 629
